Published values pooled from the literature.
A part holds a random share of what one study measured. Changes are numbered by the printed parent chain.

Block 1 — method: aptamer microarray, sandwich; form: DNA with 2'F-ANA; matrix: in vitro; concentration: 200 nM; together with: Cy3 exosite-II aptamer, 400 nM; direction: higher = stronger binding; strand: GGTTGGTGTGGTTGG
Target: Prothrombin, mature alpha-thrombin (F2, Homo sapiens, UniProt P00734)
Notes: whole 15-mer aptamer, many near background
Modification	mean fluorescence intensity
2'F-ANA at 2 3 6 8 9 12 13 15	757 a.u.
2'F-ANA at 1 3 4 7 10 12 13	71.6 a.u.
2'F-ANA at 1 7 9 11 12 13 15	226 a.u.
2'F-ANA at 7 8 9 10 14 15	120 a.u.
2'F-ANA at 1 2 4 5 6 7 8 11 13 15	259 a.u.
2'F-ANA at 2 3 4 5 7 8 11 12	187 a.u.
2'F-ANA at 3 5 6 7 9 10 11 13 14 15	51.4 a.u.
2'F-ANA at 4 5 7 9 13 14	44.2 a.u.

Block 2 — method: RNA Bind-n-Seq; form: RNA; matrix: in vitro; concentration: 200 nM; notes: whole 134-nt RNA, ends assumed; together with: 150 mM LiCl; relative to: input library; direction: higher = stronger binding; each molecule: 7-deaza-guanosine replaces G
Target: Ras GTPase-activating protein-binding protein 1, full length (G3BP1, Homo sapiens, UniProt Q13283)
UniProt Q13283, sequence (whole entry, looked up): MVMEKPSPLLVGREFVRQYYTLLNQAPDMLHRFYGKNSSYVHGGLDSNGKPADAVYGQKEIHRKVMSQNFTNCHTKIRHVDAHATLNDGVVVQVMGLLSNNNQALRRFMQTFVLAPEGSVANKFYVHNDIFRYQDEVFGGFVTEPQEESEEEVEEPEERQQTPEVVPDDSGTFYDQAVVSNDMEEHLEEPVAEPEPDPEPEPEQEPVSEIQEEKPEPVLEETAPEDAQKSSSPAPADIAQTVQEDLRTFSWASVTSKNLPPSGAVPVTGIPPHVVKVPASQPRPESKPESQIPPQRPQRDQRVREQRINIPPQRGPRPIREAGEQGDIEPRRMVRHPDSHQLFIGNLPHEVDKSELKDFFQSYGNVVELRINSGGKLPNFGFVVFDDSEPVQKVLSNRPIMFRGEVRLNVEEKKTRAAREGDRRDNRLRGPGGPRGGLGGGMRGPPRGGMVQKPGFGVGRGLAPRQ
Strand	log2 enrichment
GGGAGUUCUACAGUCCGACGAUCCAAGUCCUGUGCUACACAUCGUAUGUACCGAAUCGGGGCCGGGGCCGGGCCGGGGAAAGUAUUAUGUUACGCCGUUCGGAUCUGCACUUCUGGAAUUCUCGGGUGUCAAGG	0.384
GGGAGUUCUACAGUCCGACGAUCAAGUCCUGUGCUACACAUCGUAUGUACCGAAUCGGGUGGGAAAGGGUUUUUUUGGGAAAGUAUUAUGUUACGCCGUUCGGAUCUGCACUUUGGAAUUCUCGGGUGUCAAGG	-0.821
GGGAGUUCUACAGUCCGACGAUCGCAGGAAGUAAAAACAAAUGGAAAUGCUUCGGAUAGUGGCAGGGGUGGGGGUUGCUAAGGAAAGGGUGGGAUGGGAGUGGGAAAAGAGUUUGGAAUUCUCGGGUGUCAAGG	0.395
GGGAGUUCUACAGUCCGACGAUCUGUCUUUCCUGGUGACUAGGAUGUCGUCGGAGGAGGACAAGAGCGUGGAGCAGCCGCAGCCGCCGCCACCACCCCCCGAGGAGCCUGGAGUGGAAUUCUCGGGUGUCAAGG	0.591
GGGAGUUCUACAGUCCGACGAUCAGUCCUGUGCUACACAUCGUAUGUACCGAAUCAAAUUUUUAAACCCAAACCCCCAAAAAAGUAUUAUGUUACGCCGUUCGGAUCUGCACUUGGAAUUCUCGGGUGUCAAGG	1.15
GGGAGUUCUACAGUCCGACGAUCAAGUCCUGUGCUACACAUCGUAUGUACCGAAUCGGUUUUUGGUUUGGAAAAAAAGGAAAGUAUUAUGUUACGCCGUUCGGAUCUGCACUUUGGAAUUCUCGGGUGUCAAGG	-1.91
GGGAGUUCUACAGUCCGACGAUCUAACUUUAGAGGAGGAUCUGAUGGAUAUGGCAGUGGACGUGGAUUUGGGGAUGGCUAUAUUGGGUAUGGAGGAGGACCUGGAGGUGGCAAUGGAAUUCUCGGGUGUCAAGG	-0.23
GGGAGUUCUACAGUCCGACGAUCCCUCAAGUCCUGUGCUACACAUCGUAUGUACCGAAUCGGGUGGGUGGGUGGGGAAAGUAUUAUGUUACGCCGUUCGGAUCUGCACUUCCAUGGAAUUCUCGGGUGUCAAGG	-0.934

Block 3 — target: CRIPT, C-terminal peptide; method: DHFR complementation, deep sequencing; matrix: yeast; relative to: wild type; direction: higher = weaker binding
Notes: single substitutions, model-inferred values
Starting sequence: ERBIN, PDZ domain 1 (human); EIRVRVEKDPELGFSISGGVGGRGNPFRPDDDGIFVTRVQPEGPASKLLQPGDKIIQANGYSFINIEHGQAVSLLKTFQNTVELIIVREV; partner TKNYKQTSV
Substitution	binding free energy change
N65T	0.0435 kcal/mol
G69V	0.0903 kcal/mol
S17H	1.31 kcal/mol
S15K	0.901 kcal/mol
P44I	1.2 kcal/mol
V6W	1.42 kcal/mol
P51R	0.218 kcal/mol
Q70F	0.118 kcal/mol

Mixed results
Starting sequence: viral docking peptide; KGVKRKLFAEDSS; partner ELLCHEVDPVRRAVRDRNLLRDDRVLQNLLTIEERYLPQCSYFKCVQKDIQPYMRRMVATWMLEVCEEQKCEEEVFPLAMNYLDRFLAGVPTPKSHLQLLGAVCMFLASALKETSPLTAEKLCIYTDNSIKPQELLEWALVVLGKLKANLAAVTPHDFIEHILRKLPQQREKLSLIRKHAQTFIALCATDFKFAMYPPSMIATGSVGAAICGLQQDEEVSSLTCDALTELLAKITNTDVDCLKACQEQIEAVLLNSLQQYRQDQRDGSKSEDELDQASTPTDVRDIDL
Substitution	target	test	test system	setting	scale	endpoint	result
A9T	CCND2, cyclin fold, Cln2 fusion (human)	yeast growth competition, sequencing	yeast	weak parent motif	relative to: not given, higher = stronger binding	normalised enrichment score	-0.00725

A few entries again (block 1):
Modification	mean fluorescence intensity
2'F-ANA at 2 3 4 5 7 8 11 12	187 a.u.
2'F-ANA at 3 5 6 7 9 10 11 13 14 15	51.4 a.u.
